Published values pooled from the literature.
Protocols differ between the studies behind these lines.
Chain of UniProt O15197 (whole entry, looked up): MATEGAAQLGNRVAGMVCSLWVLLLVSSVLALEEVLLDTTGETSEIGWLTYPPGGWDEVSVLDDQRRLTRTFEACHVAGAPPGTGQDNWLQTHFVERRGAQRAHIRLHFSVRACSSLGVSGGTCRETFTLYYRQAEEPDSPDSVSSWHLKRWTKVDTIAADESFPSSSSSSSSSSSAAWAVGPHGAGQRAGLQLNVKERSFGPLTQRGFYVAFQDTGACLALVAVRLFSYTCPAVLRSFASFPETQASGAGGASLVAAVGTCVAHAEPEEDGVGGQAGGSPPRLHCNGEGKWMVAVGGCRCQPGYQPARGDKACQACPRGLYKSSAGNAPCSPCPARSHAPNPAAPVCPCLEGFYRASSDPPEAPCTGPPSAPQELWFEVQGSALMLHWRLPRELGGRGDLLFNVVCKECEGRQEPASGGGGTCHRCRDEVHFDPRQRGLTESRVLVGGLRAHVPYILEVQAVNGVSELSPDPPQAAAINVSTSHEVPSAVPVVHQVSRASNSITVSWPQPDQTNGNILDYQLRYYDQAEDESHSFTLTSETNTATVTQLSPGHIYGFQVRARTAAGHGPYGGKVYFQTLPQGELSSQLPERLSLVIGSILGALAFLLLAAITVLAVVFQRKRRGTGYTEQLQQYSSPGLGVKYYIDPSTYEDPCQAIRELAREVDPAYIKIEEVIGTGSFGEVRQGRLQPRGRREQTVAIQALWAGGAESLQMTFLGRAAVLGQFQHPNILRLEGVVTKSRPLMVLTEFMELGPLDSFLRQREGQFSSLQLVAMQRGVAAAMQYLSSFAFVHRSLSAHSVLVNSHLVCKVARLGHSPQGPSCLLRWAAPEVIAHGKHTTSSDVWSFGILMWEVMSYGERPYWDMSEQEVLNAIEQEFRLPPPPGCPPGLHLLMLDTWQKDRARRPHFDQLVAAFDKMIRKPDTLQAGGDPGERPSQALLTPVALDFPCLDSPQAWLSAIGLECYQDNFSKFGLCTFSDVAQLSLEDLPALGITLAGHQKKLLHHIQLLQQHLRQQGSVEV
Chain of UniProt P20794 (whole entry, looked up): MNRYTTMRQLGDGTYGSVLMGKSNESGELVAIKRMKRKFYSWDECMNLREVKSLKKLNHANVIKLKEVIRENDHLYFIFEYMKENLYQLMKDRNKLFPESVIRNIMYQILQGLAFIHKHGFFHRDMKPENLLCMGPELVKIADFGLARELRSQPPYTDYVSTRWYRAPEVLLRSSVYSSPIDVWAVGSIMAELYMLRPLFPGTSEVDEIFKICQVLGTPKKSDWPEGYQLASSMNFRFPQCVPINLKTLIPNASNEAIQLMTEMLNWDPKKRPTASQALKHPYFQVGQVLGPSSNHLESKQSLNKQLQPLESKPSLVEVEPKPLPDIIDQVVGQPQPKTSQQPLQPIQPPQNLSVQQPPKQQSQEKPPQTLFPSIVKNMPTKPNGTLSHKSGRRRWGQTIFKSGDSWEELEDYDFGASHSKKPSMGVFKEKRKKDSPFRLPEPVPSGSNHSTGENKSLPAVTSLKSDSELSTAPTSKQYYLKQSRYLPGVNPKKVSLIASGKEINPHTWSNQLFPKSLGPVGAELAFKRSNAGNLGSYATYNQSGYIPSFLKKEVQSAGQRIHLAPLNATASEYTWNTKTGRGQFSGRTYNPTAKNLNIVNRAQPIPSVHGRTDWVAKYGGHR
Chain of UniProt P53671 (whole entry, looked up): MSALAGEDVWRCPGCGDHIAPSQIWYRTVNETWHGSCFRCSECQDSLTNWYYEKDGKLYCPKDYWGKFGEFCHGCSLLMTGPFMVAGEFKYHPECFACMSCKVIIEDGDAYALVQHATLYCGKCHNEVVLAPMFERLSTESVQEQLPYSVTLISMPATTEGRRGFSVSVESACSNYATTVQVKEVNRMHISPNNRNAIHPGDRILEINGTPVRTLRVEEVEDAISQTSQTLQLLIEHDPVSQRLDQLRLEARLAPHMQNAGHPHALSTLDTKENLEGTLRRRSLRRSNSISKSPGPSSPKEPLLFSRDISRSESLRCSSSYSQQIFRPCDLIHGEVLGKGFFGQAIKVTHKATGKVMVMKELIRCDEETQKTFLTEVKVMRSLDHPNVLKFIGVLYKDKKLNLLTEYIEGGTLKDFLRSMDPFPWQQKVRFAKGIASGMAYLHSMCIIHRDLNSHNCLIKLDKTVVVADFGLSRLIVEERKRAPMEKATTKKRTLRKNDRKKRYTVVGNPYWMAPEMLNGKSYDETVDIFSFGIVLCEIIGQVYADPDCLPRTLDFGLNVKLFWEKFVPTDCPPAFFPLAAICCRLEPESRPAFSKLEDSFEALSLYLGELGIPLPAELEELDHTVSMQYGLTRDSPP
Chain of UniProt Q9UBN7 (whole entry, looked up): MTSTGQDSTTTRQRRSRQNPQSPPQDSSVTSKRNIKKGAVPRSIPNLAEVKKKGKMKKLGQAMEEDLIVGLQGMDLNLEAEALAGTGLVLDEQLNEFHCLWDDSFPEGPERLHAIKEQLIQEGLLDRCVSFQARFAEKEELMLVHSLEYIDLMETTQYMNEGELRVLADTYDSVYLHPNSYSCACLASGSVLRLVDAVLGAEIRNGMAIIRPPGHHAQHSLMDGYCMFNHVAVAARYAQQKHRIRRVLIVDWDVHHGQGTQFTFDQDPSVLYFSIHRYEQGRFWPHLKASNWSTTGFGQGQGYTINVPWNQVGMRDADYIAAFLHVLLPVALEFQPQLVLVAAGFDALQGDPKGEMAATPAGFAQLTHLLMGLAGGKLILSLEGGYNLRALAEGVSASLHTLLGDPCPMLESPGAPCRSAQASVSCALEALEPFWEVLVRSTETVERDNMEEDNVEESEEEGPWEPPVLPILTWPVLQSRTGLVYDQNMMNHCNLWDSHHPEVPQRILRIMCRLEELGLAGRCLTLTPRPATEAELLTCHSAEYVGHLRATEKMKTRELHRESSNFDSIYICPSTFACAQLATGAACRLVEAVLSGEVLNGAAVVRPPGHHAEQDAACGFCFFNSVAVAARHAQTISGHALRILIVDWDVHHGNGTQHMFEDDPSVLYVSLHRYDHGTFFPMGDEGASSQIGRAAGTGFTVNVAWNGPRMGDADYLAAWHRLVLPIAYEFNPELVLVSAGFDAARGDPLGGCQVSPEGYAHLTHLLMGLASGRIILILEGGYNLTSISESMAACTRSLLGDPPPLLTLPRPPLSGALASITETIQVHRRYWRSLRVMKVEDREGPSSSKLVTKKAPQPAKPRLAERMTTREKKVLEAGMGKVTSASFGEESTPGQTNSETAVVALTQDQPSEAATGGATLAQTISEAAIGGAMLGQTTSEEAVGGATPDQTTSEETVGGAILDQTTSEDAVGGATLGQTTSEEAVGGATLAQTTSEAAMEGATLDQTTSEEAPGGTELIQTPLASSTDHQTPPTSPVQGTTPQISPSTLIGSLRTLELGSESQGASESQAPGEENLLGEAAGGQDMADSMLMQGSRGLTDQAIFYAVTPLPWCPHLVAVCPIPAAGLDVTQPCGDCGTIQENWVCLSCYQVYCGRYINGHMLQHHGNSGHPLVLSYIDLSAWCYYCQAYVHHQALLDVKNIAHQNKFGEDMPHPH
Chain of UniProt Q9UQL6 (whole entry, looked up): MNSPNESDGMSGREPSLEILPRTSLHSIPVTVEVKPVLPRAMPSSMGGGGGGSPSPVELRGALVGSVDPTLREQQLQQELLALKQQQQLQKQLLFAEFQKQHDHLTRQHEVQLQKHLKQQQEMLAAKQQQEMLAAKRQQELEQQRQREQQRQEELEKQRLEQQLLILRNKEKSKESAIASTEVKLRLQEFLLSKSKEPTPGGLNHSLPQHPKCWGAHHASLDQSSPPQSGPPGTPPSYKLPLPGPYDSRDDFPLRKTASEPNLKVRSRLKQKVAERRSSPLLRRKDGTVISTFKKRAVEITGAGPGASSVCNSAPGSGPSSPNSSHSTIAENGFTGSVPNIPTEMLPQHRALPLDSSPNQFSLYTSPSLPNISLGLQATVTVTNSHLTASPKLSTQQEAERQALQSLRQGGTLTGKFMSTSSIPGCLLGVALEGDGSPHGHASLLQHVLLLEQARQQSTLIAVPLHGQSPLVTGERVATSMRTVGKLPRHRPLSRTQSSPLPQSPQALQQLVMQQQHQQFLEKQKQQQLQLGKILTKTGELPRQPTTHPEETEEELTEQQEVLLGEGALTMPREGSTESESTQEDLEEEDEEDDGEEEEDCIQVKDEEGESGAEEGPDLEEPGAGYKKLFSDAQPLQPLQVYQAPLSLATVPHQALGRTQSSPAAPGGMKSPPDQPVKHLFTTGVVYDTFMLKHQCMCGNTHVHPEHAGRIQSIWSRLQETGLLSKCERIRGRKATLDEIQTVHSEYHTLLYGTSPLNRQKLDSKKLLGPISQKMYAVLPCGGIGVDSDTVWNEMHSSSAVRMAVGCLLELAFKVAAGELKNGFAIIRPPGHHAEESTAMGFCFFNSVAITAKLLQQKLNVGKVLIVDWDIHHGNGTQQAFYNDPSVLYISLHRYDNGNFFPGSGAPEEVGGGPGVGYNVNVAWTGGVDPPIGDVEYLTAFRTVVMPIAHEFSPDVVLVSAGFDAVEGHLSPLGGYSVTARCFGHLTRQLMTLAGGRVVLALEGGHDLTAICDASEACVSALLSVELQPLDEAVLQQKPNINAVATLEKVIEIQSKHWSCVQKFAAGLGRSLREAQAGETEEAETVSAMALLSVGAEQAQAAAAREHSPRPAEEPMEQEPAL

Compound	target or system	test	test system	setting	measurement	result
C=CC(=O)N1CCC(COCC(=O)N2CCN(c3nc(-c4cnc(N)nc4C(F)F)nc(N4CCOC[C@@H]4C)n3)CC2)CC1	FES (Homo sapiens, UniProt P07332)	binding, competition with immobilised ligand		1 µM	remaining binding	100%
C[C@H]1COC2=C1C(=O)C(=O)c1c2ccc2c1CCCC2(C)C	Cutibacterium acnes	microbial growth		48 h	MIC	250 µM
CN(Cc1ccc(C(C)(C)C)cc1)Cc1cccc2ccccc12	Trichophyton rubrum	microbial growth, broth dilution	ATCC28188	6 days	MIC	60 µg/mL
CNC(C)C1CCC(N)C(OC2C(N)CC(N)C(OC3OCC(C)(O)C(NC)C3O)C2O)O1 (centres unmarked)	Pseudomonas aeruginosa	microbial growth	10145		MIC	1.56 to 3.2 µM
CN(C)c1cc(NC(=O)c2ccccc2)c(O)c2c1C[C@H]1C[C@H]3[C@H](N(C)C)C(O)=C(C(N)=O)C(=O)[C@@]3(O)C(O)=C1C2=O	Mycobacterium tuberculosis	microbial growth, broth dilution	H37RV	7 days, pH 7.4	MIC	25 µg/mL
CC(C)(C)OC(=O)N[C@@H]1CCN(c2cc(C(=O)NCC(=O)O)ccc2NC(=O)c2cc(Br)c(Br)[nH]2)C1	Klebsiella pneumoniae	microbial growth, broth dilution	ATCC700603		MIC	> 32 µg/mL
CN(C)c1cc(NC(=O)Cc2ccn(C)n2)c(O)c2c1C[C@H]1C[C@H]3[C@H](N(C)C)C(O)=C(C(N)=O)C(=O)[C@@]3(O)C(O)=C1C2=O	Mycobacterium tuberculosis	microbial growth, broth dilution	H37RV	7 days, pH 7.4	MIC	0.8 µg/mL
CCN(O)N=Nc1ccc(S(=O)(=O)Nc2nccs2)cc1		ABTS scavenging		20 µg/mL	inhibition	14.4%
O=C1C(Br)=C(Br)C(=O)c2ccccc21	Candida tropicalis	microbial growth, broth dilution	ATCC13803	24 h	MIC	3.12 µg/mL
Cc1cccc(N(O)N=Nc2ccc(S(=O)(=O)Nc3onc(C)c3C)cc2)c1		ABTS scavenging		20 µg/mL	inhibition	15.4%
C#CCOC(=O)ON=C1C=CC(=C(C#N)c2ccccc2)C=C1	Candida tropicalis	microbial growth, broth dilution	ATCC13803	48 h	MIC	8 µg/mL
O=C(O)c1cn(C2CC2)c2cc(N3CCNCC3)c(F)cc2c1=O	Klebsiella pneumoniae	microbial growth, broth dilution	ATCC27736		MIC	0.03 µM
C[C@@H](O)[C@H]1C(=O)N2C(C(=O)O)=C(S[C@@H]3CN[C@H](C(=O)N(C)C)C3)[C@H](C)[C@H]12	Klebsiella pneumoniae	microbial growth, broth dilution	ATCC13883	20 h	MIC	< 0.5 µg/mL
OC(Cn1cncn1)(Cn1cncn1)c1ccc(F)cc1F	Lodderomyces parapsilosis	microbial growth	ATCC22019		MIC	1 µg/mL
CN(C)c1cc(NC(=O)Cc2ccncc2)c(O)c2c1C[C@H]1C[C@H]3[C@H](N(C)C)C(O)=C(C(N)=O)C(=O)[C@@]3(O)C(O)=C1C2=O	Mycobacterium tuberculosis	microbial growth, broth dilution	H37RV	7 days, pH 7.4	MIC	0.8 µg/mL
COCC(=O)NC/C=C/c1ccc2ncnc(Nc3ccc(Oc4ccc(C)nc4)c(C)c3)c2c1	Staphylococcus aureus	microbial growth	NCTC8325		MIC	> 30 µM
CN[C@H](CC(C)C)C(=O)N[C@H]1C(=O)N[C@@H](CC(N)=O)C(=O)N[C@H]2C(=O)N[C@H]3C(=O)N[C@H](C(=O)N[C@H](C(=O)O)c4cc(O)cc(O)c4-c4cc3ccc4O)[C@H](O)c3ccc(c(Cl)c3)Oc3cc2cc(c3O[C@@H]2O[C@H](CO)[C@@H](O)[C@H](O)[C@H]2O[C@H]2C[C@](C)(N)[C@H](O)[C@H](C)O2)Oc2ccc(cc2Cl)[C@H]1O	Streptococcus pneumoniae	microbial growth	PRSP		MIC	1 µg/mL
COc1ccc(-c2ccc3ncc4c(c3c2)n(-c2ccc(N3CCNCC3)c(C(F)(F)F)c2)c(=O)n4C)cn1	Staphylococcus aureus	microbial growth	NCTC8325		MIC	> 30 µM
CC(=NNC(=S)Nc1ccccc1)c1ccc(Nc2nnc(-c3ccc(Cl)cc3)c3ccccc23)cc1	MCF7	cell growth or viability, MTT		10 µM	cell death	96.5%

Compound	target or system	test	test system	setting	measurement	result
Cc1ncc(-c2ccnc(Nc3ccc(S(C)(=O)=O)cc3)n2)n1C(C)C	Staphylococcus aureus	microbial growth	NCTC8325		MIC	> 30 µM
CN(C)c1cc(NC(=O)Cc2cnccn2)c(O)c2c1C[C@H]1C[C@H]3[C@H](N(C)C)C(O)=C(C(N)=O)C(=O)[C@@]3(O)C(O)=C1C2=O	Mycobacterium tuberculosis	microbial growth, broth dilution	H37RV	7 days, pH 7.4	MIC	0.8 µg/mL
COc1cc2c(Oc3ccc4[nH]c(C)cc4c3F)ncnc2cc1OCCCN1CCCC1	Staphylococcus aureus	microbial growth	NCTC8325		MIC	> 30 µM
CN(C)c1cc(NC(=O)Cc2cccnn2)c(O)c2c1C[C@H]1C[C@H]3[C@H](N(C)C)C(O)=C(C(N)=O)C(=O)[C@@]3(O)C(O)=C1C2=O	Mycobacterium tuberculosis	microbial growth, broth dilution	H37RV	7 days, pH 7.4	MIC	1.6 µg/mL
C[C@@H]1CN(CC(=O)Nc2ccc3c(c2)Cc2cccc(-c4cc(=O)cc(N5CCOCC5)o4)c2S3)C[C@H](C)O1	Staphylococcus aureus	microbial growth	NCTC8325		MIC	> 30 µM
CCCCC(=O)Nc1ccc(-c2ccc3ncn(CCC)c(=O)c3c2)cn1	EPHB6 (Homo sapiens, UniProt O15197)	binding, competition with immobilised ligand		0.5 µM	remaining binding	100%
CN(C(=O)Nc1ccc(Cl)c(C(F)(F)F)c1)c1ccc2c(c1)OC(F)(F)O2	Staphylococcus aureus	microbial growth	NCTC8325	24 h	MIC	> 100 µM
O=C(/C=C/c1cccc(OS(=O)(=O)Oc2ccccc2)c1)NO	HDAC6 (Homo sapiens, UniProt Q9UBN7)	enzyme activity, inhibitor, fluorescence			IC50	0.614 µM
CC(=O)NC[C@H]1CN(c2ccc(N3CCOCC3)c(F)c2)C(=O)O1	Staphylococcus aureus	microbial growth	NCTC8325		MIC	3 µM
O=C(NO)c1cncc(OS(=O)(=O)Oc2ccc(C(F)(F)F)cc2)c1	HDAC5 (Homo sapiens, UniProt Q9UQL6)	enzyme activity, inhibitor, fluorescence			IC50	5.97 µM
CCOC(=O)CNC(=O)CO/N=c1\cc2n(-c3ccc(Cl)cc3)c3ccccc3nc-2cc1Nc1ccc(Cl)cc1	Neisseria gonorrhoeae	microbial growth	ATCC49226		MIC	3.75 µM
CN(C)c1cc(NC(=O)CCc2cccnc2)c(O)c2c1C[C@H]1C[C@H]3[C@H](N(C)C)C(O)=C(C(N)=O)C(=O)[C@@]3(O)C(O)=C1C2=O	Mycobacterium tuberculosis	microbial growth, broth dilution	H37RV	7 days, pH 7.4	MIC	1.6 µg/mL
OC(Cn1cncn1)(Cn1cncn1)c1ccc(F)cc1F	Candida albicans	microbial growth, broth dilution	SP3931	48 h	MIC	4 µM
C[C@H](NC(=O)CO/N=c1\cc2n(-c3ccc(Cl)cc3)c3ccccc3nc-2cc1Nc1ccc(Cl)cc1)C(=O)O	Neisseria gonorrhoeae	microbial growth	ATCC49226		MIC	0.94 µM
COc1cc(-c2cncc3c2CN(C)Cc2cc(N4CCNCC4)ccc2-3)cc(OC)c1OC	MAK (Homo sapiens, UniProt P20794)	enzyme activity, inhibitor		1 µM	remaining activity	109%
C=CC(=O)ON=C1C=CC(=C(C#N)c2ccccc2)C=C1	Candida tropicalis	microbial growth, broth dilution	ATCC13803	48 h	MIC	8 µg/mL
CNc1ncc2c(/C=C/C(=O)N3CCC(OC)CC3)nn(Cc3cccc(C(F)(F)F)c3)c2n1	LIM domain kinase 2 (LIMK2, Homo sapiens, UniProt P53671)	enzyme activity, inhibitor, radiometric		1 µM	remaining activity	85%
CC(=O)NC[C@H]1CN(c2ccc(N3CCOCC3)c(F)c2)C(=O)O1	Staphylococcus aureus	microbial growth, broth dilution	ATCC6538		MIC	2 µM
CC(C)(C)c1cc(NC(=O)Nc2ccccc2)no1	Staphylococcus aureus	microbial growth	NCTC8325		MIC	> 100 µM

For quick reference, copied from above:
Compound	target or system	test	test system	setting	measurement	result
CCOC(=O)CNC(=O)CO/N=c1\cc2n(-c3ccc(Cl)cc3)c3ccccc3nc-2cc1Nc1ccc(Cl)cc1	Neisseria gonorrhoeae	microbial growth	ATCC49226		MIC	3.75 µM
CN(C(=O)Nc1ccc(Cl)c(C(F)(F)F)c1)c1ccc2c(c1)OC(F)(F)O2	Staphylococcus aureus	microbial growth	NCTC8325	24 h	MIC	> 100 µM
CN(C)c1cc(NC(=O)Cc2ccn(C)n2)c(O)c2c1C[C@H]1C[C@H]3[C@H](N(C)C)C(O)=C(C(N)=O)C(=O)[C@@]3(O)C(O)=C1C2=O	Mycobacterium tuberculosis	microbial growth, broth dilution	H37RV	7 days, pH 7.4	MIC	0.8 µg/mL
O=C(O)c1cn(C2CC2)c2cc(N3CCNCC3)c(F)cc2c1=O	Klebsiella pneumoniae	microbial growth, broth dilution	ATCC27736		MIC	0.03 µM
CC(=O)NC[C@H]1CN(c2ccc(N3CCOCC3)c(F)c2)C(=O)O1	Staphylococcus aureus	microbial growth	NCTC8325		MIC	3 µM
